{"data": "Published values gathered from unrelated publications", "note": "A part holds a random share of what one study measured. Positions count from the first letter of the parent shown."}
{"data": "Series 1", "target": "CCNA2, cyclin fold, Cln2 fusion (human)", "technique": "yeast growth competition, sequencing", "sample": "yeast", "setting": "strong parent motif", "relative to": "not given", "direction": "higher = stronger binding", "starting sequence": "CDC25A docking peptide (human); PPHRRRLLFACSP"}
{"Variant": "L7C", "normalised enrichment score": 1.69}
{"Variant": "S12L", "normalised enrichment score": 2.82}
{"Variant": "R4D", "normalised enrichment score": 0.707}
{"Variant": "F9C", "normalised enrichment score": 0.848}
{"Variant": "R4G", "normalised enrichment score": 1.73}
{"Variant": "R5N", "normalised enrichment score": -0.102}
{"Variant": "C11M", "normalised enrichment score": 2.08}
{"Variant": "C11S", "normalised enrichment score": 3.24}
{"Variant": "H3E", "normalised enrichment score": 1.05}
{"Variant": "R5G", "normalised enrichment score": 1.04}
{"Variant": "S12I", "normalised enrichment score": 2.75}
{"Variant": "P13S", "normalised enrichment score": 1.98}
{"Variant": "P13A", "normalised enrichment score": 2.54}
{"Variant": "R5Y", "normalised enrichment score": 1.07}
{"Variant": "P2F", "normalised enrichment score": 1.87}
{"Variant": "C11T", "normalised enrichment score": 2.68}
{"Variant": "C11P", "normalised enrichment score": 3.48}
{"Variant": "H3F", "normalised enrichment score": 4.5}
{"Variant": "P1T", "normalised enrichment score": 2.24}
{"Variant": "L7I", "normalised enrichment score": 2.52}
{"Variant": "F9E", "normalised enrichment score": 0.794}
{"Variant": "P13Y", "normalised enrichment score": 2.31}
{"Variant": "S12Y", "normalised enrichment score": 2.01}
{"Variant": "P1D", "normalised enrichment score": 2.03}
{"Variant": "H3R", "normalised enrichment score": 3.48}
{"data": "Series 2", "target": "ABI1, truncated, D143A, DHFR fusion (Arabidopsis thaliana)", "technique": "DHFR PCA, deep sequencing", "sample": "yeast", "setting": "methotrexate growth selection, single substitutions", "together with": "(+)-ABA 200 µM", "relative to": "wild-type fitted maximum", "direction": "higher = stronger binding", "starting sequence": "PYL1, truncated, DHFR fusion (Arabidopsis thaliana); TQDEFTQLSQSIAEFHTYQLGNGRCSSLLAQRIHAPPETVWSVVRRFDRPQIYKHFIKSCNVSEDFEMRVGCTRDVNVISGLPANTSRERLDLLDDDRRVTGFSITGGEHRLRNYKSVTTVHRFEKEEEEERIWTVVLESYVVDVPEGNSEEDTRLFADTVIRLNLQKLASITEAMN; partner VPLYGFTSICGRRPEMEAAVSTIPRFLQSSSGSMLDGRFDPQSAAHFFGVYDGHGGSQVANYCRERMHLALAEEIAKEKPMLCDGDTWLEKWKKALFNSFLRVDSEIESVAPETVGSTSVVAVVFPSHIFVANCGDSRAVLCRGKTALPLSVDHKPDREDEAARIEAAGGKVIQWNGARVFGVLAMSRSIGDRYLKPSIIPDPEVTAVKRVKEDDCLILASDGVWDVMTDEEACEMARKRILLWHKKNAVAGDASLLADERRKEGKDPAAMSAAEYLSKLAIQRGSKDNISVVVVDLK"}
{"Variant": "R69D", "relative binding score": "92.1%"}
{"Variant": "E109Y", "relative binding score": "80.4%"}
{"Variant": "E89N", "relative binding score": "2.09%"}
{"Variant": "E128V", "relative binding score": "103%"}
{"Variant": "P36N", "relative binding score": "87.6%"}
{"Variant": "Y115A", "relative binding score": "4.39%"}
{"Variant": "Q31V", "relative binding score": "71.7%"}
{"Variant": "F56H", "relative binding score": "47.2%"}
{"Variant": "G21Q", "relative binding score": "103%"}
{"Variant": "E128C", "relative binding score": "108%"}
{"Variant": "Q19I", "relative binding score": "96.9%"}
{"Variant": "V78M", "relative binding score": "92%"}
{"Variant": "K58L", "relative binding score": "85%"}
{"Variant": "D95N", "relative binding score": "102%"}
{"Variant": "R111D", "relative binding score": "36.6%"}
{"Variant": "R88V", "relative binding score": "105%"}
{"Variant": "S87A", "relative binding score": "89.4%"}
{"Variant": "I57P", "relative binding score": "6.25%"}
{"Variant": "R74N", "relative binding score": "7.13%"}
{"Variant": "I12G", "relative binding score": "30.3%"}
{"Variant": "T17G", "relative binding score": "74.8%"}
{"Variant": "L138T", "relative binding score": "38.6%"}
{"data": "Series 3", "target": "RING finger protein unkempt homolog, zinc fingers 1-6, GST-SBP tag (UNK, Homo sapiens, UniProt Q9C0B0, residues 30-357)", "technique": "RNA Bind-n-Seq", "molecule type": "RNA", "sample": "in vitro", "tested at": "not given", "setting": "RNA with constant flanks, human and mouse sites, ends assumed", "relative to": "input RNA pool", "direction": "higher = stronger binding", "Construct (chain)": "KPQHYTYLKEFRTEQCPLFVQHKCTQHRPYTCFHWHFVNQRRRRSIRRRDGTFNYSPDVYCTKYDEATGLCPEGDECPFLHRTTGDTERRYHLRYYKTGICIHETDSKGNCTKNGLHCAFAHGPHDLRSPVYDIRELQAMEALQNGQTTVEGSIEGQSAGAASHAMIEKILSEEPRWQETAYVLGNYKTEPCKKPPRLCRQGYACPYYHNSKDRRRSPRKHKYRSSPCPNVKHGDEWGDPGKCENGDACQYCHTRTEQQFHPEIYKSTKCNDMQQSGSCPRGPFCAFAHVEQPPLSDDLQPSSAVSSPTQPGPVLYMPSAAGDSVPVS"}
{"Oligonucleotide": "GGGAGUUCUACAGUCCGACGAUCAAGCUGAAACCUCAUGAGGAGCCUCUCCGUUCUGAGAUCCUCAGUGGGAAGUUUACUAUCUUGAAUGUUCGAGACCCAACUGGAGCCUCCAUUGCCCUCUUCACUGCCAGGUUACACCACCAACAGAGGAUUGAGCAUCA", "bound/input enrichment [ratio]": 0.0519}
{"Oligonucleotide": "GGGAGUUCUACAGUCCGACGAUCGGAGGAGGGAUACGUUUCCACGAUAACUUCGGCUUUGAUGACCUAGUACGAGAUUUCAAUAGCAUCUUCAGCGAUAUGGGGGCCUGGACCUUGCCUUCCCAUCCUCCUGAACUUCCAGGUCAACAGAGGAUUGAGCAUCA", "bound/input enrichment [ratio]": 0.528}
{"Oligonucleotide": "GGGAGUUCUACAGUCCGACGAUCGAUAUGUUUUAUAGGAAUUGGGCACUUAAGGAAAGCUUCAUAAAAGCCAUUGGUGUUGGACUAGGAUUUGAAUUGCAGCGGCUUGAAUUUGAUCUAUCUCCAUUAAACUUGGAUAUAGGCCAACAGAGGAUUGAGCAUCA", "bound/input enrichment [ratio]": 1.03}
{"Oligonucleotide": "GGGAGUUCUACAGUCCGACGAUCGGUGUGCAGCUCUACCUAAUGUUGGUUGAGGUUUUCGAGAGCGAAUAUUCAAGGAAGAAAUAUUACUAUGUCGCUGGGUACCUGUUCCCGGCCACAGUGGUCGGCGUCUCAGCAGCCAUUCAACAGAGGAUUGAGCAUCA", "bound/input enrichment [ratio]": 0.68}
{"Oligonucleotide": "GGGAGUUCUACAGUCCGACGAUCUUGGUUUUCUUAACUGUUGGCUUCUCCCCACAGCGUUUUUUGUUUUUUUUUAAACAUUCAUAUUGUUUUCAAACUUGGAAUUCAUAGACACUCUGGCUCUAGGUUCCUUAAGGGGGAAAACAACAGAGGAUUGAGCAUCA", "bound/input enrichment [ratio]": 0.267}
{"Oligonucleotide": "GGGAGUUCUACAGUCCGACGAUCCACUAGGGGUUGGGAAGGGCGGCGGACGGUGCCGGGGGGAGAUUGGCCUGGCAGGCCCUUUUAGCUACCCAUUACUGGACCAGAAAGAUGACAUCUAUCAUCAAGUUAACCACCCUCUCUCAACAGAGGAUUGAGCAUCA", "bound/input enrichment [ratio]": 0.514}
{"Oligonucleotide": "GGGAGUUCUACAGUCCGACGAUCAGCGAGGCCCCCAAUCCAGAGCCCCGGGCCAGGUCAAGAUCCACCUCCAAAUCCAAACCCAAUGUCCCGGCAGAGUCGCGCUCCAGGUCAAAAUCGGCUUCAAAAACACGCUCUCGGUCCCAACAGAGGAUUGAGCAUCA", "bound/input enrichment [ratio]": 0.109}
{"Oligonucleotide": "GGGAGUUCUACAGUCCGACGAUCACAAAUAUUUUUCAUGGUCACAUUUAUUAAAUGUUACUACAUUUCUGAAUUUUUGAAAAAUGUAUUUUAUCAUUAAAUGGCAUUAUUUUAAAGGGUGAAAAACUGACACAGUCAAUUCAGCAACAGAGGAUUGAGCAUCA", "bound/input enrichment [ratio]": 0.215}
{"data": "Series 4", "target": "UBE2T UBC core domain (UniProt Q9NPD8)", "technique": "yeast two-hybrid", "sample": "yeast", "setting": "mostly zero background", "relative to": "not given", "direction": "higher = stronger interaction", "B1": "MARCHF2 RING domain (UniProt Q9P0N8); chain RLLSTVIRALDTPSDGPFCRICHEGANGECLLSPCGCTGTLGAVHKSCLEKWLSSSNTSYCELCHTEFAVEKRPRPLTEWL", "B2": "RFPL3 RING domain (UniProt O75679); chain MAALFQEASSCPVCSDYLEKPMSLECGCTVCLKCINSLQKEPHGEDLLCCCCSMVSQRNKIRP", "B3": "RNF7 RING domain (UniProt Q9UBF6); chain AICRVQVMDACLRCQAENKQEDCVVVWGECNHSFHNCCMSLWVKQNNRCPLCQQDWVVQRIGK", "B4": "TRIM74 RING domain (UniProt Q86UV6); chain SLLELEDWLQCPICLEVFKESLMLQCGHSYCKGCLVSLSYHLDTKVRCPMCWQVVDGSSSLP", "B5": "UBE4B RING domain (UniProt O95155); chain KNARAEIDYSDAPDEFRDPLMDTLMTDPVRLPSGTIMDRSIILRHLLNSPTDPFNRQTLTESMLEPVPELKEQIQAWMREKQNSDH", "B6": "RNF10 RING domain (UniProt Q8N5U6); chain VRICSHEVPSCPICLYPPTAAKITRCGHIFCWACILHYLSLSEKTWSKCPICYSSVHKKDLKS", "B7": "TRIM2 RING domain (UniProt Q9C040); chain VRQIDKQFLICSICLERYKNPKVLPCLHTFCERCLQNYIPAHSLTLSCPVCRQTSILPEKGV", "Construct (chain)": "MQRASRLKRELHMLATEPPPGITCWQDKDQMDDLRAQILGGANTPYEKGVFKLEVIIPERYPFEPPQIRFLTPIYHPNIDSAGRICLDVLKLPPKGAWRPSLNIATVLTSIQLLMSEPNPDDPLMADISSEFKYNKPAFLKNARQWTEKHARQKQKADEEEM"}
{"Sequence": "B1 (MARCHF2 RING domain)", "lacZ reporter activity": 0}
{"Sequence": "AAQLLEEKLTCAICLGLYQDPVTLPCGHNFCGACIRDWWDRCGKACPECREPFPDGAELR (TRIM65 RING domain (UniProt Q6PJ69))", "lacZ reporter activity": 0}
{"Sequence": "EIKDYKARLTCPCCNMRKKDAVLTKCFHVFCFECVKTRYDTRQRKCPKCNAAFGANDFHR (RNF20 RING domain (UniProt Q5VTR2))", "lacZ reporter activity": 0}
{"Sequence": "PLRRLQEEKLCKICMDRHIAVVFIPCGHLVTCKQCAEAVDRCPMCSAVIDFKQRVF (BIRC8 RING domain (UniProt Q96P09))", "lacZ reporter activity": 0}
{"Sequence": "B2 (RFPL3 RING domain)", "lacZ reporter activity": 0}
{"Sequence": "B3 (RNF7 RING domain)", "lacZ reporter activity": 0}
{"Sequence": "B4 (TRIM74 RING domain)", "lacZ reporter activity": 0}
{"Sequence": "B5 (UBE4B RING domain)", "lacZ reporter activity": 0}
{"Sequence": "VPADASPDSKCPICLDRFDNVSYLDRCLHKFCFRCVQEWSKNKAECPLCKQPFDSIFHSV (TOPORS RING domain (UniProt Q9NS56))", "lacZ reporter activity": 0}
{"Sequence": "B6 (RNF10 RING domain)", "lacZ reporter activity": 0}
{"Sequence": "B7 (TRIM2 RING domain)", "lacZ reporter activity": 0}
{"note": "Some of these lines once more (series 1):"}
{"Variant": "P1T", "normalised enrichment score": 2.24}
{"Variant": "R4G", "normalised enrichment score": 1.73}
{"Variant": "S12L", "normalised enrichment score": 2.82}
{"Variant": "F9C", "normalised enrichment score": 0.848}
{"Variant": "P2F", "normalised enrichment score": 1.87}
{"Variant": "C11P", "normalised enrichment score": 3.48}
{"Variant": "P13Y", "normalised enrichment score": 2.31}
{"Variant": "C11S", "normalised enrichment score": 3.24}
